# Assay results pooled from the literature.
# Parts stem from different laboratories: compare values within a part only. “And” joins repeats or separate records; there may be more than shown.

# Sample 1 — cell line: mouse MPNST tumor cells; technique: high-content nuclear imaging; refers to: cell number; concentration: 10 µM; time: 12 h; setting: mean of 2 replicates; relative to: plate mean; reading: higher = more cells
SMILES,nuclei count
O=C(NCc1ccc(OC(F)(F)F)cc1)C1c2ccccc2C(=O)N1C1CCOCC1 (stereo not shown),0.68 z-score
CNC(=O)c1ccc2c(c1)CCO[C@H]2CCN1CCN(c2ccc(C(N)=O)cc2)CC1,-1.18 z-score
CCN(CC)S(=O)(=O)c1ccc(Cl)c(C(=O)Nc2ccc3nc(C)sc3c2)c1,0.715 z-score
CC(C)OC(=O)C(C)(C)Oc1ccc(C(=O)c2ccc(Cl)cc2)cc1,1.41 z-score and -0.227 z-score
N#Cc1cc(C2=Nc3ccc(Br)cc3NC(=O)C2)ccn1,-0.396 z-score
O=C(NC1Cc2ccccc2N(C[C@@H](O)CO)C1=O)c1cc2cc(Cl)sc2[nH]1 (stereo partly shown),0.709 z-score
NC(=O)OCC(COC(N)=O)c1ccccc1,0.686 z-score and -0.506 z-score and 0.622 z-score
CON(C)C(=O)[C@H](O)[C@H](Cc1ccccc1)NC(=O)c1cc2cc(Cl)ccc2[nH]1,0.25 z-score
O=C(O)CCC=CCC1COC(c2ccccc2Cl)OC1c1ccccc1O (stereo not shown),-0.309 z-score
COc1ccncc1C(=O)NC(=O)Nc1ccc(-c2ccccc2)c(C(F)(F)F)c1,-0.777 z-score

# Sample 2 — effect on: ligand displacement; technique: radioligand; concentration: 10 µM
# Target: 5-hydroxytryptamine receptor 1A (HTR1A, Homo sapiens, UniProt P08908)
# Sequence of UniProt P08908 (whole entry, looked up): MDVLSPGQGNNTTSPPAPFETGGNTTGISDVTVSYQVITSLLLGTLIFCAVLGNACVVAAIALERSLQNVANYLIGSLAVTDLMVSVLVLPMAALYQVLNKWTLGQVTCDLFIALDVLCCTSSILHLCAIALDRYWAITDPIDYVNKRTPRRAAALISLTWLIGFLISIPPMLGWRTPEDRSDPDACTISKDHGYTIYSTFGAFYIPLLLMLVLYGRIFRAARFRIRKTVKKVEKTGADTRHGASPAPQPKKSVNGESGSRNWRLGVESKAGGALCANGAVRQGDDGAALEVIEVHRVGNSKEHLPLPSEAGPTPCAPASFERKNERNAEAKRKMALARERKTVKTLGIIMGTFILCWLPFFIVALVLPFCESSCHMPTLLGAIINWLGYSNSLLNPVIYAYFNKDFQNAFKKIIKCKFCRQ
SMILES,inhibition [%]
O=C(NS(=O)(=O)c1ccc(NCC2CCOCC2)c([N+](=O)[O-])c1)c1ccc(N2CCN(Cc3ccc(C(F)(F)F)cc3-c3ccc(Cl)cc3)CC2)cc1Oc1cnc2[nH]ccc2c1,-13.4
Cc1cc(NC(=O)c2cccc(S(F)(F)(F)(F)F)c2)cc(-n2ccn3nc(-c4cccnc4)cc23)c1,69.8
CC(=O)Nc1c(C(C)=O)c(=O)n(C)c2nc(-c3ccc(Cl)cc3Cl)c(-c3ccc(Cl)cc3)cc12,12.2
C[C@H](NC(=O)Nc1cc2[nH]ncc2c(CO)n1)c1ccccn1,20
Cn1nc(C(=O)NCc2ccc(C(=O)O)cc2)cc1-c1ccc2[nH]ccc2c1,22.7
Cn1cc(Cl)c2c(Oc3c(F)cc(Nc4cc(Cl)nc(N)n4)cc3F)ccnc21,-10.7
CC(=O)C1=C(C)N(c2cccc(C(F)(F)F)c2)C(=O)N[C@@H]1c1ccc(C#N)nc1,50
CC(=O)c1c(NS(C)(=O)=O)c2cc(-c3ccc(Cl)cc3)c(-c3ccc(Cl)cc3Cl)nc2n(C)c1=O,28.7
CN(C)C(=O)Cn1cc(-c2nc(C3(c4ccc(-c5cnc(N)nc5)cc4)CC3)no2)cn1,31.5
O=C(O)[C@H]1[C@H](Cn2nnc3ccccc3c2=O)CC[C@@H]1C(=O)c1ccc(OCCC2CCOCC2)cc1,-0.18
"CNC(=O)Nc1ccc2c(c1)C1(CC2)OC(=O)N(CC(=O)N(Cc2ccc(F)cc2)[C@@H](C)C(F)(F)F)C1=O (single isomer, unassigned)",4.17
CNCc1ccccc1-c1csc([C@H](C)Nc2nc(C)nc3cc(OC)c(OC)cc23)c1,93.8
CCCCN(CCCC)C(=O)CN1C[C@@H](c2cc(OC)c3c(c2)OCO3)[C@H](C(=O)O)[C@H]1CC(C)(C)CCC,76.3
Cc1cnc(-c2cc(Cl)ccc2F)cc1-n1c(=O)n(CC(N)=O)c2cnccc21,22.9
COc1cccc(CNC(=O)c2nc3scc(COCc4ccc(C(=O)O)cc4)c3c(=O)[nH]2)c1,7.7
O=C(Nc1cccnn1)N1CC(CC=Cc2cncc(Oc3ccc(C(F)(F)F)cn3)n2)C1,-25
N#Cc1ccc(Nc2ccc3[nH]c(=O)[nH]c3c2)c(Cl)c1,-5.44

# Sample 3 — mode: agonist
# Target: Beta-1 adrenergic receptor (ADRB1, Homo sapiens, UniProt P08588)
# Sequence of UniProt P08588 (whole entry, looked up): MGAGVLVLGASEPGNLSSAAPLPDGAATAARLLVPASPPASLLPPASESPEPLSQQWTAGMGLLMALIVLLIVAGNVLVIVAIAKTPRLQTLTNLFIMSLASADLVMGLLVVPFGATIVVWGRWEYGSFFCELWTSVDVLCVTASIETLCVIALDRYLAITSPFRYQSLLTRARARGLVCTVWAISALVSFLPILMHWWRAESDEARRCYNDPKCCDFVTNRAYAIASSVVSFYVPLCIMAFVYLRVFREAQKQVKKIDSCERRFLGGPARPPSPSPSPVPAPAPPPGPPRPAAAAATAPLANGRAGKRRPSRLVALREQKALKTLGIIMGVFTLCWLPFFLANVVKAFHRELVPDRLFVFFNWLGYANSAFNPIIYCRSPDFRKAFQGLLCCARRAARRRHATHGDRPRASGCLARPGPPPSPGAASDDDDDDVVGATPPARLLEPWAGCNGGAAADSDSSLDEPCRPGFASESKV
SMILES,EC50 [µM]
OC(c1ccc2c(c1)CCO2)c1nc(Nc2cccc(C(F)(F)F)c2)n[nH]1 (stereo not shown),≥ 100
CN(c1ccccc1)c1cc(=O)c2ccnc(-c3ccncc3)c2o1,≥ 100
Cc1cc2oc(=O)cc(COn3nnc4ccc(Cl)cc43)c2cc1Cl,≥ 100
Cc1noc2c(N3CCOCC3)cc(-c3cccs3)nc12,≥ 100
CC(=O)N[S+](=O)([O-])c1ccc(NC(=O)c2cc(-c3ccccc3)nc3ccccc23)cc1,≥ 100
CCN(CC)c1ccc2c(c1)OC(=O)/C(=C/Nc1ccc(CC(=O)NNc3c4c(nc5ccccc35)CCCC4)cc1)C2=O,≥ 100
O=c1ccc2cc(O)c(O)cc2o1,≥ 100
Cc1nc(Nc2cnn(C3CCNCC3)c2)nc2c1N(C)C(=O)c1cc3ccccc3cc1N2C,≥ 100
CC(CNCCc1ccc(O)c(O)c1)Cc1cccc(O)c1 (stereo not shown),≥ 100

# Sample 4 — organism: Plasmodium berghei; mode: inhibitor; cells: Huh-7; strain: GFP-expressing sporozoites, liver stage; concentration: 10 µM; time: 24 h; relative to: untreated control
Structure (SMILES),infection rate
CC(=O)Oc1ccc2c(c1)CC[C@@H]1[C@@H]2CC[C@]2(C)[C@@H](O)CC[C@@H]12,138%
Nc1ccc(C(=O)NCC(=O)O)cc1,86.4%
CC(=O)OCC(=O)[C@@]12OC3(CCCC3)O[C@@H]1C[C@H]1[C@@H]3CCC4=CC(=O)C=C[C@]4(C)[C@@]3(F)[C@@H](O)C[C@@]12C,105%
CC1(C)S[C@@H]2[C@H](NC(=O)[C@H](NC(=O)N3CCNC3=O)c3ccccc3)C(=O)N2[C@H]1C(=O)O,100%
CC(C(=O)O)c1ccc2c(c1)[nH]c1ccc(Cl)cc12 (stereo not shown),98.8%
CNC[C@H](O)c1ccc(O)c(O)c1,117%
CC(C)/N=c1\cc2n(-c3ccc(Cl)cc3)c3ccccc3nc-2cc1Nc1ccc(Cl)cc1,105%

# Repeated from above (sample 2):
SMILES,inhibition [%]
"CNC(=O)Nc1ccc2c(c1)C1(CC2)OC(=O)N(CC(=O)N(Cc2ccc(F)cc2)[C@@H](C)C(F)(F)F)C1=O (single isomer, unassigned)",4.17
O=C(Nc1cccnn1)N1CC(CC=Cc2cncc(Oc3ccc(C(F)(F)F)cn3)n2)C1,-25
O=C(O)[C@H]1[C@H](Cn2nnc3ccccc3c2=O)CC[C@@H]1C(=O)c1ccc(OCCC2CCOCC2)cc1,-0.18
Cc1cnc(-c2cc(Cl)ccc2F)cc1-n1c(=O)n(CC(N)=O)c2cnccc21,22.9
CCCCN(CCCC)C(=O)CN1C[C@@H](c2cc(OC)c3c(c2)OCO3)[C@H](C(=O)O)[C@H]1CC(C)(C)CCC,76.3
COc1cccc(CNC(=O)c2nc3scc(COCc4ccc(C(=O)O)cc4)c3c(=O)[nH]2)c1,7.7
